# Published values from different studies.
# Every numbered part comes from another study and shows a few of its results, in no order. Changes are numbered by the printed parent chain.
# Chain of UniProt Q9BRS2 (whole entry, looked up): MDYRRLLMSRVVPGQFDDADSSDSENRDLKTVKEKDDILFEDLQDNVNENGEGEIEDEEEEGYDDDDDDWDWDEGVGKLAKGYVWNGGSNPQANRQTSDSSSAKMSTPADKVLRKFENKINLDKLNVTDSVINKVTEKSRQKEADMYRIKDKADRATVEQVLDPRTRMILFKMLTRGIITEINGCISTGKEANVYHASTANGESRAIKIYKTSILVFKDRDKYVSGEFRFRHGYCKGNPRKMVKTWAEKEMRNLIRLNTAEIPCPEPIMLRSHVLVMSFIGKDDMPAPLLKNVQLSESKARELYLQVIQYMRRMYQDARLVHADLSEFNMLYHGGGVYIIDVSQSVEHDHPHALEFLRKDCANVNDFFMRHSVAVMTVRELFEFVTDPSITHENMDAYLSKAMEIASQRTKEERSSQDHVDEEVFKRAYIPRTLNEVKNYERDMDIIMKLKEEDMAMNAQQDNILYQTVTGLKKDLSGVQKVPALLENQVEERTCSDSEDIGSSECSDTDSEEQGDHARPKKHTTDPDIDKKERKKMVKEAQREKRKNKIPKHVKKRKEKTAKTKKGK

# Set 1 — method: competition protein-binding microarray; molecule type: double-stranded DNA, one strand shown; sample: in vitro; concentration: 2 µM; with: Pho4 competitor, 0.05 µM; reading: higher = stronger binding
# Target: Centromere-binding protein 1, full length, His-tagged (CBF1, Saccharomyces cerevisiae, UniProt P17106, residues 1-351)
# Chain of UniProt P17106 (whole entry, looked up): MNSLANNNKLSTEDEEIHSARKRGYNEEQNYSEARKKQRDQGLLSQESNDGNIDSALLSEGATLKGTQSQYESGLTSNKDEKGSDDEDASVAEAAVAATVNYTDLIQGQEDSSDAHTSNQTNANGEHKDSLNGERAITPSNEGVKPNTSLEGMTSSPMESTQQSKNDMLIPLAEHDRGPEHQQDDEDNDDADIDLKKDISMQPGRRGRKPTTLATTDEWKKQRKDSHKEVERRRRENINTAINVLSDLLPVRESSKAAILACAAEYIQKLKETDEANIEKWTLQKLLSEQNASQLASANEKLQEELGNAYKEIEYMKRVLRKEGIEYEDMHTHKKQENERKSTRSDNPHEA
# Notes: whole 60-bp probe, lowest competitor level
Sequence,fluorescence intensity [a.u.]
CTTCTGTAAATTTCACACGTGTTTTGACGCGCCCCGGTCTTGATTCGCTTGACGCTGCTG,952
CATACCCAACCTTGGTGCGTGGGTGAAGATATTTGTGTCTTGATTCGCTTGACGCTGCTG,68.8
CAGCGAGTTCTTTAGCACGCTTCTGTCTTTCAGCATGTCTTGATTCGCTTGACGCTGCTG,77
GCAAATTACCATTTGAGCGTGCGGAAATAAGCTCCTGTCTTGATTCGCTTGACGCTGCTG,85.1
ATAAAACAACGGCCTCCCGTGCCGAATTACCTTCCTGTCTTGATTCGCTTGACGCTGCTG,106
AAATTACTAAGTTGCATCGTGGGTGACGCCGTATGAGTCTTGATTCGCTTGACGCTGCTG,65.5
AATCACCAATGGCAAAGCGTGCAAAATCAACATTTGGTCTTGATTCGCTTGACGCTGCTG,91.1
AAAGCGGTAATTTGTCACCAGACTTCACATATCTATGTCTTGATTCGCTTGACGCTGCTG,109

# Set 2 — method: RNA Bind-n-Seq; molecule type: RNA; sample: in vitro; concentration: 20 nM; notes: 6-mer, flanks averaged, single round; with: 150 mM KCl; reference: input library; reading: higher = stronger binding
# Target: TAR DNA-binding protein 43, full length, His tag (TARDBP, Homo sapiens, UniProt Q13148, residues 1-414)
Sequence,6-mer enrichment (R)
GCAGCC,0.893
GGCGAG,3.8
UAUAUG,0.713
CAUCAG,0.653
CCAAUA,0.65
CCGCAG,0.883
GAAGCU,0.779
CGAAUU,0.594

# Set 3 — target: NFIL3, bZIP domain (human); method: DHFR protein complementation; sample: yeast; reference: wild-type JUN-FOS pair; reading: higher = stronger binding
# Notes: single substitutions, most at no-binding floor
# Starting sequence: JUN, bZIP domain (human); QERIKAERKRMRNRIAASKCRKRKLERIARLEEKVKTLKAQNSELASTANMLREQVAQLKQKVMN; partner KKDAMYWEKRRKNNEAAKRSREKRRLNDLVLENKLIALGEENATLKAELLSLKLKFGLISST
Substitution,binding fitness
L52M,-1.46 natural log
V35Y,-1.47 natural log
T48S,-1.4 natural log
K39C,-1.45 natural log
S47K,-1.45 natural log
A40E,-1.34 natural log
T48Q,-1.5 natural log
A29E,-1.45 natural log

# Other studies, line by line
Structure (SMILES),target,assay,setting,measurement,result
O=C(NS(=O)(=O)c1ccc(NCC2CCOCC2)c([N+](=O)[O-])c1)c1ccc(N2CCN(Cc3ccc(C(F)(F)F)cc3-c3ccc(Cl)cc3)CC2)cc1Oc1cnc2[nH]ccc2c1,"Serine/threonine-protein kinase RIO1 (RIOK1, Homo sapiens, UniProt Q9BRS2)","cell-free assay, competition with immobilised ligand",1 µM,remaining binding,100%

# Excerpt of the above (other studies, line by line):
Structure (SMILES),target,assay,setting,measurement,result
O=C(NS(=O)(=O)c1ccc(NCC2CCOCC2)c([N+](=O)[O-])c1)c1ccc(N2CCN(Cc3ccc(C(F)(F)F)cc3-c3ccc(Cl)cc3)CC2)cc1Oc1cnc2[nH]ccc2c1,"Serine/threonine-protein kinase RIO1 (RIOK1, Homo sapiens, UniProt Q9BRS2)","cell-free assay, competition with immobilised ligand",1 µM,remaining binding,100%
